Measured values gathered from unrelated publications.
Parts stem from different laboratories: compare values within a part only. Positions count from the first letter of the parent shown.

Study 1 — target: CCNB1, cyclin fold, Cln2 fusion (human); technique: yeast growth competition, sequencing; sample: yeast; setting: strong parent motif; baseline: not given; reading: higher = stronger binding; measurement: normalised enrichment score
Starting sequence: MASTL docking peptide (human); PMIAKNLMCELDE; partner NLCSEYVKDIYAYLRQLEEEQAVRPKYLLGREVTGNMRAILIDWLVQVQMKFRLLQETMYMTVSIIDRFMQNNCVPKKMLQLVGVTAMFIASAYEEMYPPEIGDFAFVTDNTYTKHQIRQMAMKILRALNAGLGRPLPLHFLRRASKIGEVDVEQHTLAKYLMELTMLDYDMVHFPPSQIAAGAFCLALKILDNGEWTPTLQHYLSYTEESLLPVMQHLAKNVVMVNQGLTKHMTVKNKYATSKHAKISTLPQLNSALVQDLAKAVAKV
E10F: 0.563
M8P: 0.103
E10W: 0.785
M8L: 1.99
L11W: 1.05
L11Q: 0.207
N6H: 0.267
L7I: 0.642
L7S: 0.137
K5C: 0.56

Study 2 — technique: universal PBM; molecule type: double-stranded DNA, one strand shown; sample: in vitro; tested at: 600 nM; reading: higher = stronger binding; measurement: E-score
Target: Sal-like protein 4, full length isoform A (SALL4, Homo sapiens, UniProt Q9UJQ4, residues 1-1053)
Sequence of UniProt Q9UJQ4 (whole entry, looked up): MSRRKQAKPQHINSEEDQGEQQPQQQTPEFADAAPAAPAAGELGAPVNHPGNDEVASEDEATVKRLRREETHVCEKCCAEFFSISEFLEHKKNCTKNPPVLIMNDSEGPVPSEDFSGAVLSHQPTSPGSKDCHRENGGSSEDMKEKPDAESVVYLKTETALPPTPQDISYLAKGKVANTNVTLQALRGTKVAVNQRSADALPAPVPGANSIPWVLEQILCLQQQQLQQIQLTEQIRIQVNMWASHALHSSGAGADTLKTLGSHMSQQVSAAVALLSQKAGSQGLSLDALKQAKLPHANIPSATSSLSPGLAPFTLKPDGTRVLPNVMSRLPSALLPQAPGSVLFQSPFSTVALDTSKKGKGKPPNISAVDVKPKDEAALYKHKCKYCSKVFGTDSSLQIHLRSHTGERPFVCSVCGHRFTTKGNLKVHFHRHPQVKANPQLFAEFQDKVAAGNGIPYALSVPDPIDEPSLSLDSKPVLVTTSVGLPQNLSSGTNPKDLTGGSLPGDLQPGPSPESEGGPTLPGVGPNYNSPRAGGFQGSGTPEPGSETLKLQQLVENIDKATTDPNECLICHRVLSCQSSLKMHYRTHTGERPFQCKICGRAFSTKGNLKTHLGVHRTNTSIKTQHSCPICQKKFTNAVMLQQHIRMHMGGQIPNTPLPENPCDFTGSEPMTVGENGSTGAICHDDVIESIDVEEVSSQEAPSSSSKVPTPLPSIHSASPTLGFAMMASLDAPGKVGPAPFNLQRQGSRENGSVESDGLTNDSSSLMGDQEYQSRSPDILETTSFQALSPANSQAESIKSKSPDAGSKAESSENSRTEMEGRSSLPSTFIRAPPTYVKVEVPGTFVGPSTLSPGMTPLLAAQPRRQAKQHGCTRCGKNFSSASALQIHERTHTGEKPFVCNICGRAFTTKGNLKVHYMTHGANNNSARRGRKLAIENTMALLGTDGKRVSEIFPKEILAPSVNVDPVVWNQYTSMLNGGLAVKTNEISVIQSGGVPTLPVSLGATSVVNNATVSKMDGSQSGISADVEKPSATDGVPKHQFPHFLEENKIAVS
Setting: 8-mer, flanks averaged, mean of replicates
GCACAATA: 0.15
ATTCCCGA: -0.0202
ATTGTGCC: 0.0291
GGTCAGCA: -0.0672
AACCCAAT: 0.124
AATTTCCG: 0.068
ATGGCCAC: -0.307
CGTATTTC: 0.22
CGTGGGTC: -0.239
AGTTTCCC: -0.197
ACGGGTAA: -0.111
CCACAGTC: -0.228
CGCGCCAC: -0.22
ATACGGGA: -0.059

Study 3 — technique: aptamer microarray, sandwich; molecule type: DNA with 2'F-ANA; sample: in vitro; tested at: 200 nM; together with: Cy3 exosite-II aptamer, 400 nM; reading: higher = stronger binding; measurement: mean fluorescence intensity; oligonucleotide: GGTTGGTGTGGTTGG
Target: Prothrombin, mature alpha-thrombin (F2, Homo sapiens, UniProt P00734)
Setting: whole 15-mer aptamer, many near background
2'F-ANA at 1 2 5 7 9 15: 58.3 a.u.
2'F-ANA at 1 2 3 4 5 8 9 10 11 13 15: 58.4 a.u.
2'F-ANA at 2 10 14: 100 a.u.
2'F-ANA at 1 3 5 6 8 9 11 13 14: 48.3 a.u.
2'F-ANA at 1 4 5 6 7 9 10 13 14 15: 47.4 a.u.
2'F-ANA at 1 2 6 7 8 11 14: 55.1 a.u.
2'F-ANA at 1 5 8 10 11: 49.9 a.u.
2'F-ANA at 3 5 8 11 13 15: 99.8 a.u.
2'F-ANA at 2 3 6 10 11 13: 302 a.u.
2'F-ANA at 1 6 7 10 11 12: 73.2 a.u.
2'F-ANA at 1 2 3 4 5 7 11 13 15: 53.6 a.u.

Study 4 — technique: DHFR PCA, deep sequencing; sample: yeast; together with: (+)-ABA 2500 µM; baseline: wild-type fitted maximum; reading: higher = stronger binding; measurement: relative binding score
Target: ABI1, truncated, D143A, DHFR fusion (Arabidopsis thaliana)
Setting: methotrexate growth selection, single substitutions
Starting sequence: PYL1, truncated, DHFR fusion (Arabidopsis thaliana); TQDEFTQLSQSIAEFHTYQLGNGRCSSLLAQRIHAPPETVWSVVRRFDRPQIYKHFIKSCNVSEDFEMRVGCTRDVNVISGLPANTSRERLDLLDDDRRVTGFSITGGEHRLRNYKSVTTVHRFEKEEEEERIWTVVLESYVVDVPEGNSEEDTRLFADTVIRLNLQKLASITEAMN
Q167W: 74.5%
D48S: 90.2%
D95L: 87.7%
D153E: 98%
P146M: 67%
S87V: 77.2%
R155F: 70.8%
L138S: 52%
E147D: 102%
I172V: 95.6%
K58F: 85.6%

Study 5 — technique: RNA Bind-n-Seq; molecule type: RNA; sample: in vitro; tested at: 365 nM; baseline: no-protein control; reading: higher = stronger binding; measurement: RBNS enrichment (R)
Target: RNA binding protein fox-1 homolog 2, RRM domain, GST-SBP tag (RBFOX2, Homo sapiens, UniProt O43251-10, residues 100-194)
Setting: natural RNA segment, single round, ends assumed
Shared flanks, not repeated: GGGAGUUCUACAGUCCGACGAUC … UGGAAUUCUCGGGUGCCAA
Residues (chain): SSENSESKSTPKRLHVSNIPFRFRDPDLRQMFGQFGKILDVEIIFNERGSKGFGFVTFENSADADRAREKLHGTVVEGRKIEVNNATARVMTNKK
GAGACGGGGGUCUCACUUAGCUGUGAGUGGCCUUGAACUGACCCUUCCACCUUCAUUUCCCAAGUGCUGGGGUUAUAGGUUUGCACCAUGACACCCGACUUCGCCCUCAG: 0.72
AUGUCAGGAUCCAGCAAAACUACUGCUUUCUUCUCCAAAGACAUGUGGGAGCCUUCAAUCCUCAGUGGCAUGGGAAACAGCUGAGUACUUGCCCCGUGACUUCAGUUUUC: 1.63
GUUUCUCUUUGUUAUCUAAAUGUUUCAGAAUUCAAUCGUGAAGGAACAGGCAUUUUACACUAUGAAGACAUUCUUUUGAGAUUUUUAUUUCAGUUGCUAUAUCAUAAGCA: 0.537
GGGCCCAUGGCCCCAGCUGGCUGGGUCGCCCCUCCUCGGGCGCCUGCGCUCCUCUGCAGCCUGAGCUCCACCCUCCCCUCUUCUUGCGGCACCGCCCACCCACACCCCGU: 0.884
CCCUCCUCCUCGGCCUCCCUCCUCCCCUCCUUCGCUCGCUCAACCUCUUUUGUUCAGUACGUGUAACUUGAAGCUAAUUUGUACUACUGGAUAUCUGACUGGAGCCGCAG: 0.41
CCAGGGCGCUAGAAGCCGGGUGGGGGUGAGGGUAGCCCUUGAGCCCUGUCCCUGCGGCUGUGAGAGCAGCAGGACCCUGGGCCAGUUCCAGAGACCUGGGGGUGUGUCUG: 0.402
CGCCCGGCACACAAGGCACGUUUGGCAUUUCUCUUUGAGAGAGUUUAUCAUUGGGAGAAGCCGCAGGGACAGAACUGAACGUCCUGCAGCUUCGGGGCAAGUGAGACAAU: 0.83
CCGAUUCUGGCUGUCCUAUGUCCAGGAAGAAGCCCAUUUGUUGAGGCUGACCUUCCUGAUCAUACACACACACAGCCCAGCAAAAGCCUCUCCUGAACCAAACAAACCUG: 0.324
AAACUAAUAAAUAUUUUUUUAUGAAGAAGAAAAAUGUGUAGAUUACAUUUCACAUUUUGUAUUUUUUUUUAUGUGUGUGUGUCUGUAUUCUGGUGUUUGUAACACCAAAG: 0.513
GUCCCUAUAACUGGGGUUAUCUGACCAUCCAUCUCCCUUCUUUGUUCUGCUUUCUGUUCGGGGUGCCCUUCACUUAAUUGCCUUACUGGCUGGCUGACGGCAGGGGAGUG: 0.834
UUAGCCGACCACGAGGAACCUUGUUUCGAAUUAGAGGCAGAGGAAGAGCCAGAGGAGUUUUUGCUGGGACAAAUACUGGUCCAAACAACUCAAAUACUACUUUUCAAAAG: 0.308
CGGGCUGUCUGCUCUCCCUCCUAGCAGCUGUCACACUGAAGUUUUGUCCUCUGCUGUCUCCUCUGGUCCUGAGAUGAGCUGUGAGCCUAGGUGGCCAAGGCUUCCUGCAU: 0.306

Study 6 — technique: protein-binding microarray; molecule type: double-stranded DNA, one strand shown; sample: in vitro; tested at: 250 nM; setting: 60-bp whole probe; together with: salmon DNA 0.4 mg/ml; baseline: random background probes; reading: higher = stronger binding; measurement: log fluorescence; shared flanks, not repeated: GCCTAGCAC … GTCTTGATTCGCTTGACGCTGCTG
Target: Interferon regulatory factor 5, full length, phosphomimetic (IRF5, Homo sapiens, UniProt Q13568-2, residues 1-514, K96S/S451D/S453D/S456D/S462D)
GACGATCTCAGTCTCGAGCCGTGCTAG: -0.29 z-score
GACGGACTGGGTTTCGGAACGTGCTAG: 2.7 z-score
TTAAGACTGGACTATCGGTTAGTGCTA: 5.79 z-score
TCACCTCTGTAAGTCAGACTGTGCTAG: -0.0166 z-score
TTAGTTCTCGGTTTCGGTTAGTGCTAG: 9.22 z-score
TTAGGTCTCCTTATCATTTAGTGCTAG: 0.0584 z-score
TTAGGTTTCGGGTTTCAGTTAGTGCTA: 8.69 z-score
GTGTTTCTCAACCATTTTGTTGTGCTA: 1.09 z-score
TCAACTCTAATCTCACTCACTGTGCTA: 0.31 z-score
GACGGTCTCGTACTGCTGACGTGCTAG: -0.0303 z-score
TTAGCTATCGGGTTTCGGTTAGTGCTA: 9.16 z-score
TCACGTCTGATTTTGCTACTGTGCTAG: 0.366 z-score
GACGGACTGGGTATCGGGCCGTGCTAG: 0.0758 z-score
TTAGGACTGGACTATCGGATAGTGCTA: 1.34 z-score
CCTGGCTCCATGGAATTTTTGTGCTAG: -0.651 z-score
GACGATATCCGTCTCGAGACGTGCTAG: 0.288 z-score
TTAGGTATCGGTCTGGGTTAGTGCTAG: 7.09 z-score
